Results pooled from the literature.
Compare with care: the assays were run in different laboratories. Numbers after ± are the reported error.

The remaining compound of `CCc1noc(CC)c1C(=O)O[C@H]1C(C)=C[C@]23C(=O)[C@@H](C=C(CO)[C@@H](O)[C@]12O)[C@H]1[C@@H](C[C@H]3C)C1(C)C` is reported as roughly 98% (phosphate buffer 30% acetonitrile; 100 µM, 2 h, pH 7.4, 37 °C).
The remaining compound of `CN(C)C(=O)c1ncn2c(=O)n(C)nnc12` is reported as 92 ± 3% (PBS; 50 µM, 2 h, pH 7.4, no microsomes; baseline: time zero).
With `CC[C@H](C)[C@@H]1NC(=O)[C@H](CC(N)=O)NC(=O)[C@@H]2CCCN2C(=O)[C@@H](NC(=O)[C@H](CC(N)=O)NC(=O)[C@@H](N)CCC(N)=O)COC(=O)[C@H](CCSC)NC(=O)[C@H](Cc2c[nH]c3ccccc23)NC(=O)[C@H](CCC(N)=O)NC(=O)CNC(=O)[C@H](Cc2ccccc2)NC1=O` the remaining compound was less than 4% (human plasma diluted with PBS; 0.28 mM, 30 min, pH 7.2, 37 °C).
For `CC(C)[C@@H]1NC(=O)CNC(=O)[C@H](CC(N)=O)NC(=O)[C@H](CCCNC(=N)N)NC(=O)[C@H](Cc2ccc(O)cc2)NC(=O)[C@H](C(C)C)NC(=O)[C@@H](NC(=O)[C@@H](NC(=O)[C@H](CC(N)=O)NC(=O)[C@H](Cc2c[nH]c3ccccc23)NC(=O)[C@H](C)NC(=O)[C@H](Cc2ccccc2)NC(=O)CNC(=O)[C@H](CCCCN)NC(=O)[C@H](Cc2ccccc2)NC(=O)[C@H](Cc2ccccc2)NC(=O)[C@H](CCCCN)NC(=O)OCC2c3ccccc3-c3ccccc32)C(C)C)CSSC[C@@H](C(=O)N[C@@H](Cc2c[nH]cn2)C(=O)N[C@@H](CCCNC(=N)N)C(=O)N[C@@H](CCCNC(=N)N)C(=O)N[C@@H](C)C(=O)N[C@@H](CC(N)=O)C(N)=O)NC(=O)[C@H](C(C)C)NC(=O)[C@H](CCCNC(=N)N)NC1=O`, the remaining compound was 37.7% (HPLC; mouse liver homogenate; concentration not given, 8 h).
For `C[C@@H]1NC(=O)[C@H](CC(N)=O)N2C[C@H](Cc3c[nH]c4ccccc34)NC(=O)[C@H](CSCC2=O)NC(=O)[C@H](CCCNC(=N)N)NC(=O)[C@@H](Cc2ccccc2)NC(=O)[C@H](Cc2c[nH]cn2)NC(=O)[C@@H](NC(=O)[C@@H](N)Cc2ccc(O)cc2)CSSC[C@@H](C(=O)N[C@@H](Cc2ccc(O)cc2)C(N)=O)NC(=O)[C@H](Cc2ccccc2)NC1=O`, the remaining compound was 12% (LC-MS; rat serum; 10 µM, 24 h, 37 °C).
With `COc1cccc2c1C(=O)c1c(O)c3c(c(O)c1C2=O)CC(O)(C(=O)CO)CC3OC1CC(NC(=O)OC2C=CCCC(C)(C(=O)NCC(=O)O)CC2)C(O)C(C)O1` (centres unmarked) the remaining compound was greater than 99% (mouse plasma; 1 µM, time not given, 37 °C).
The remaining compound of `Cc1cc(O)cc(C)c1C[C@H](N)C(=O)N[C@H](C)C(=O)NCC(=O)N[C@@H](Cc1ccc(F)cc1)C(=O)N1CCC[C@H]1C(=O)N[C@@H](CC(C)C)C(=O)N[C@@H](Cc1c[nH]c2ccccc12)C(=O)NCc1cc(C(F)(F)F)cc(C(F)(F)F)c1` is reported as 100% (rat plasma; 0 h, 37 °C).
The remaining compound of `CCCC[C@H](NC(=O)[C@H](Cc1ccccc1)NC(=O)CNC(=O)[C@@H](C)NC(=O)[C@@H](N)Cc1ccc(O)cc1)C(=O)N1CCC[C@H]1C(=O)N[C@@H](CC(C)C)C(=O)N[C@@H](CO[C@@H]1O[C@H](CO)[C@@H](O)[C@H](O)[C@H]1O)C(=O)N[C@@H](Cc1c[nH]c2ccccc12)C(=O)NCc1cc(C(F)(F)F)cc(C(F)(F)F)c1` is reported as 70% (rat plasma; 24 h, 37 °C).
With `CSCC[C@H](NC(=O)CNC(=O)[C@H](CC(=O)O)NC(=O)[C@@H](NC(=O)[C@@H](NC(=O)[C@@H](NC(=O)CNC(=O)[C@H](CCC(=O)O)NC(=O)[C@H](CCSC)NC(=O)[C@H](CC(=O)O)NC(=O)[C@H](C)NC(=O)[C@H](C)NC(=O)[C@@H](NC(=O)[C@H](CO)NC(=O)[C@@H](N)CC(C)C)[C@@H](C)O)C(C)C)C(C)C)[C@@H](C)O)C(=O)N[C@@H](C)C(=O)N[C@@H](CO)C(=O)NCC(=O)N[C@@H](CC(C)C)C(=O)N[C@@H](CC(=O)O)C(=O)N[C@@H](CCCCN)C(=O)N[C@@H](CC(=O)O)C(=O)N[C@@H](Cc1ccc(O)cc1)C(=O)N[C@@H](CC(C)C)C(=O)N[C@@H](CCCCN)C(=O)N1CCC[C@H]1C(=O)N[C@@H](CC(=O)O)C(=O)N[C@@H](CC(=O)O)C(=O)O` the remaining compound was 67% (LC-MS/MS; dog serum; 10 µg/mL, 24 h, 37 °C).
The remaining compound of `NC(=O)c1c(F)ccc(OCc2nc3cc(Cl)cnc3s2)c1F` is reported as 100 ± 5.2% (human plasma; 10 µM, 24 h, 37 °C).
`CC[C@@H](C)[C@@H]1NC(=O)[C@@H](Cc2ccccc2)NC(=O)[C@@H]2CCCN2C(=O)[C@H]([C@H](C)CC)NC(=O)[C@@H](Cc2ccccc2)NC(=O)[C@@H]2CCCN2C1=O` has a remaining compound of 100% (mouse plasma; 2 h, 37 °C).
`CCN(CC)c1ccc2c(-c3ccccc3C(=O)OCCC[18F])c3ccc(=[N+](CC)CC)cc-3oc2c1` gave a remaining compound of greater than 95% (mouse, rat and human serum; 2 h, 37 °C).
With `C[C@H](CCC(=O)N[C@@H](CCCCNC(=O)C(F)(F)F)C(=O)O)[C@H]1CC[C@H]2[C@@H]3[C@H](O)C[C@@H]4C[C@H](O)CC[C@]4(C)[C@H]3C[C@H](O)[C@]12C` the remaining compound was 102% (hASBT-MDCK cell homogenate; 5 µM, 10 min).
The remaining compound of `CC(=O)c1ncn2c(=O)n(C)nnc12` is reported as 77 ± 3% (PBS; 50 µM, 2 h, pH 7.4, no microsomes; baseline: time zero).

A few entries again:
`CC[C@@H](C)[C@@H]1NC(=O)[C@@H](Cc2ccccc2)NC(=O)[C@@H]2CCCN2C(=O)[C@H]([C@H](C)CC)NC(=O)[C@@H](Cc2ccccc2)NC(=O)[C@@H]2CCCN2C1=O` has a remaining compound of 100% (mouse plasma; 2 h, 37 °C).
